Measurements from different studies.
Parts stem from different laboratories: compare values within a part only.

Set 1
Target: Histone acetyltransferase KAT6A, winged helix 2, GST fusion (KAT6A, Homo sapiens, UniProt Q92794, residues 85-181)
Technique: protein binding microarray
Form: double-stranded DNA, one strand shown
Medium: in vitro
Tested at: not given
Setting: 8-mer, flanks averaged, mean of 2 arrays, mostly near background
Relative to: not given
Reading: higher = stronger binding
Quantity: E-score
Residues (chain): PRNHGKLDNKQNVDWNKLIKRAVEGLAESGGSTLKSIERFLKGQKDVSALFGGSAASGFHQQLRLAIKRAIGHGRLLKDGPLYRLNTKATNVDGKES
ACCAGATG: -0.131
CACATTGG: -0.0603
ACAACATA: -0.0448
TAAGTCAA: -0.0774
TACTTGCA: -0.177

Set 2
Target: RING finger protein unkempt homolog, zinc fingers 1-6, GST-SBP tag (UNK, Homo sapiens, UniProt Q9C0B0, residues 30-357)
UniProt Q9C0B0, sequence (30-357, looked up): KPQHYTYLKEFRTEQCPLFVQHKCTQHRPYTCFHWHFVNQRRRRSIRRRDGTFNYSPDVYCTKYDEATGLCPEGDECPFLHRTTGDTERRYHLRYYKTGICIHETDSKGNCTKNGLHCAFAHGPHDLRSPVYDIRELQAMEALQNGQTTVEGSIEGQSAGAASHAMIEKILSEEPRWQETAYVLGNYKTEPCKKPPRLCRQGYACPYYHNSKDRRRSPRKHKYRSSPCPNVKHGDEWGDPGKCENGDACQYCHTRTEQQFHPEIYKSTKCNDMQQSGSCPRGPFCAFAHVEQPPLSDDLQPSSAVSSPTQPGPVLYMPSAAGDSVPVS
Technique: RNA Bind-n-Seq
Form: RNA
Medium: in vitro
Tested at: not given
Setting: RNA with constant flanks, human and mouse sites, ends assumed
Relative to: input RNA pool
Reading: higher = stronger binding
Quantity: bound/input enrichment
Constant ends, left off below: GGGAGUUCUACAGUCCGACGAUC … CAACAGAGGAUUGAGCAUCA
GAACGAAUUGACUUCUUACCUCACUAUGACACACUGGUUAAAAGUGGCAUGUAUGAAUAUUAUGCCAGUGAAGGACAAAAUCCUUUGCCAUUUGCUCUUGCGGAAUUAAUUGACAAUUCA: 0.101 ratio
GACCUGGACCUCACACUGCUGAAUCCCCGAAUGAUUGUGGAUGUCACCCCAUAUAUGAAUCCUUCACCAUUUACCGUCUCCCCCAACACCCAUGUUUCUCAAGUGUUCAACCUGUUCAGA: 0.629 ratio
UGUGGCGCCAGAGGCCUAGGUGCUGACCCCGGCUUAGAGAGAAGAAAGAAUAUCUUGUUCUUUGUUAGAAAUCUCCACAGCAAGAGUAGUACUUGGUGGGAUGAACAUCUUUCUGAAGAA: 0.345 ratio
GCACGUACAGCCCUGAAUGCAGGUGCAGUUUGGGUUUUUUGUUUUGUUUUGUUUUGUUUUAUUAGCCAGUGGGCAAAGUGAAAUGUAAUUUUGGGUAAGCCAGGGCUACUUUAGCUUUUC: 0.442 ratio
AAUAAUCUCGCCCCAGUGGGUGCUUGUGAUGAUUUUGAGAGAGCUCUCCAAGGACCACUGUUUGCUUAUAUCCAGGAGUUUCGGUUCCUGCCCCCACCUCUCUAUUCAGAGAUUGAUCCA: 0.158 ratio
GAUGGGUCUCUGAAGCAGAGCAUUCUUAGUUCUAAGCUGCUGGACCACCCUUACUGUAAAAGUCCACUGGAUGCUCCCUUGCUGUGCAGUGAACCCAAAGUAGAAAACCAAAUGUCAGGU: 0.383 ratio

Set 3
Target: Interferon regulatory factor 7, full length, phosphomimetic (IRF7, Homo sapiens, UniProt Q92985, residues 1-503, S471D/S472D/S475D/S476D/S477D/S483D/S484D/S487D)
Technique: protein-binding microarray
Form: double-stranded DNA, one strand shown
Medium: in vitro
Tested at: 2200 nM top
Setting: 60-bp whole probe
With: salmon DNA 0.4 mg/ml
Relative to: random background probes
Reading: higher = stronger binding
Quantity: fitted relative affinity
Constant ends, left off below: GCCTAGCAC … GTCTTGATTCGCTTGACGCTGCTG
Target sequence (chain): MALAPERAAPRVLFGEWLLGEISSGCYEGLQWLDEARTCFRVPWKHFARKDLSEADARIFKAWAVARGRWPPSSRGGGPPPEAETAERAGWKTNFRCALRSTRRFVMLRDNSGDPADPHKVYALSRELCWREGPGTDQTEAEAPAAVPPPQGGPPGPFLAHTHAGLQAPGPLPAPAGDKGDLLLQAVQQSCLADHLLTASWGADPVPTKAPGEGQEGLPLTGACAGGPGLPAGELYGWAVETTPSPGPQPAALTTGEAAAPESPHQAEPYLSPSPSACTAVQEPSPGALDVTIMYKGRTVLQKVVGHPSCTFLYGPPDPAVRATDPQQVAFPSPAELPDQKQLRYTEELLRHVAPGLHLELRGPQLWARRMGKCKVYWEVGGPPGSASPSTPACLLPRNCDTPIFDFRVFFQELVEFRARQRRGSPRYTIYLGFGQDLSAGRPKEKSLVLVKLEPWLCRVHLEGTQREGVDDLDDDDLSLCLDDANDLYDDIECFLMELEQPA
GACGGTTTGCTTTTCCTGACGTGCTAG: 2.09 z-score
TTAGGTATCCTTATCTTTTAGTGCTAG: 0.47 z-score
GACAGTTTCCTTCTCCTGACGTGCTAG: 3.69 z-score
GACGGGTTCGGTATCGGGACGTGCTAG: 0.58 z-score
GACGGTTGCGGTTCCGGGACGTGCTAG: 1.22 z-score
GACGGTTTCCTTTTCCTAACGTGCTAG: 5.68 z-score
TTAGAACTGGGGACTGGAATAGTGCTA: -0.553 z-score

Other studies, line by line
PhoQ, residues 284 288 289 292 302 303 ASTSDA
fold induction (PhoP, residues 12 14 15 18 19 LHSVQ (Escherichia coli, UniProt P23836); Sort-seq, measured: YFP reporter; E. coli; PhoQ-PhoP variant library, with: 10 µM Mg2+; relative to: high Mg2+ state, higher = stronger signaling): 7.32

For quick reference, copied from above (set 2):
GAACGAAUUGACUUCUUACCUCACUAUGACACACUGGUUAAAAGUGGCAUGUAUGAAUAUUAUGCCAGUGAAGGACAAAAUCCUUUGCCAUUUGCUCUUGCGGAAUUAAUUGACAAUUCA: 0.101 ratio
GACCUGGACCUCACACUGCUGAAUCCCCGAAUGAUUGUGGAUGUCACCCCAUAUAUGAAUCCUUCACCAUUUACCGUCUCCCCCAACACCCAUGUUUCUCAAGUGUUCAACCUGUUCAGA: 0.629 ratio
UGUGGCGCCAGAGGCCUAGGUGCUGACCCCGGCUUAGAGAGAAGAAAGAAUAUCUUGUUCUUUGUUAGAAAUCUCCACAGCAAGAGUAGUACUUGGUGGGAUGAACAUCUUUCUGAAGAA: 0.345 ratio
